Assay results pooled from the literature.
Numbered parts are unrelated; each lists some results of a single study.
UniProt O00571, sequence (132-607, looked up): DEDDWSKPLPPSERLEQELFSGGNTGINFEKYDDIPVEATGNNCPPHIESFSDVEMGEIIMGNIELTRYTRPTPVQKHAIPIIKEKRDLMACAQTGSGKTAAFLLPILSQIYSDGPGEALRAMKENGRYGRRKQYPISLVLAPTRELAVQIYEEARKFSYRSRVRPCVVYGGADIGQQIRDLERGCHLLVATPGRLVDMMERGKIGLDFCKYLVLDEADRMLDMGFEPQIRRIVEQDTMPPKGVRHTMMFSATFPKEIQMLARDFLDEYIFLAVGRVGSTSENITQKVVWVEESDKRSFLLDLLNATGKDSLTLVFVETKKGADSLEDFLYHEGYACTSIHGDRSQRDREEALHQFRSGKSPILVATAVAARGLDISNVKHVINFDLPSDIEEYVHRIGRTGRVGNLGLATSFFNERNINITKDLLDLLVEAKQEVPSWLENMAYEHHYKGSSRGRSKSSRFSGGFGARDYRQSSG

Sample 1 — method: RNA Bind-n-Seq; molecule type: RNA; sample: in vitro; concentration: 1 µM; setting: whole 134-nt RNA, ends assumed; added: 150 mM KCl; reference: input library; direction: higher = stronger binding
Target: Ras GTPase-activating protein-binding protein 1, C-terminal RGG region (G3BP1, Homo sapiens, UniProt Q13283)
UniProt Q13283, sequence (whole entry, looked up): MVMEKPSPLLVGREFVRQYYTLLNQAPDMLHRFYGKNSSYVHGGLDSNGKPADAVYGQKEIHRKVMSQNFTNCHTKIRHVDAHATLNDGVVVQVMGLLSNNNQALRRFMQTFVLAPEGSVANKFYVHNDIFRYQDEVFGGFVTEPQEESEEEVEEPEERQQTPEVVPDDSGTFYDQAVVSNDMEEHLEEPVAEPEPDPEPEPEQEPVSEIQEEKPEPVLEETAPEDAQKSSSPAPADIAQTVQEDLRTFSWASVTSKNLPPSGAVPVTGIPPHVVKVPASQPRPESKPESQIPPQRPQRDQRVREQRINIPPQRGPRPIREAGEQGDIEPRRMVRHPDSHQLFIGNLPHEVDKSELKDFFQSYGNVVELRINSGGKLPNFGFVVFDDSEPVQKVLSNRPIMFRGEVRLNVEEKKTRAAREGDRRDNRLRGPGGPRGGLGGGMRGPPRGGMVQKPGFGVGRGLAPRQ
All sequences stand within: GGGAGUUCUACAGUCCGACGAUC … UGGAAUUCUCGGGUGUCAAGG
For `UCCUGUGCUACACAUCGUAUGUACCGAAUCGGGGUUUUUGGGGUUUUUGGGUUUUUGGGGAAAGUAUUAUGUUACGCCGUUCGGAUCUGC`, the log2 enrichment was 0.441.
The log2 enrichment of `UAACUUUAGAGGAGGAGCUGAUGGAUAUGGCAGUGGACGUGGAUUUGGGGAUGGCUAUAAUGGGUAUGGAGGAGGACCUGGAGGUGGCAA` is reported as -0.714.
The log2 enrichment of `AAGUCCUGUGCUACACAUCGUAUGUACCGAAUCGGGUUUGGGAGGGUUUUUUUGGGAAAGUAUUAUGUUACGCCGUUCGGAUCUGCACUU` is reported as 1.01.
`GCAGGAAGUAAAAACAAAUGGAAAUGCUUCGGAUAGUGGCAGGGGUGGAGGUUGCUAAGGAAAGGGUGGGAUGGGAGUGGGUAAAGAGUU` gave a log2 enrichment of 0.701.
`CAAGUCCUGUGCUACACAUCGUAUGUACCGAAUCGGGAGGGAAAAAGGGAAAGGGAAAGUAUUAUGUUACGCCGUUCGGAUCUGCACUUC` has a log2 enrichment of 1.56.
`AAGUCCUGUGCUACACAUCGUAUGUACCGAAUCGGAAAAAAAGGAAAAAAAGGAGGAAAGUAUUAUGUUACGCCGUUCGGAUCUGCACUU` has a log2 enrichment of -2.04.
For `CCUCAAGUCCUGUGCUACACAUCGUAUGUACCGAAUCGGCCGGCCGGGCCGGGAAAGUAUUAUGUUACGCCGUUCGGAUCUGCACUUCCA`, the log2 enrichment was -1.07.
`UCAAGUCCUGUGCUACACAUCGUAUGUACCGAAUCGGGCCCGGCCCGGGCCCGGAAAGUAUUAUGUUACGCCGUUCGGAUCUGCACUUCC` gave a log2 enrichment of -1.5.

Sample 2 — cell line: HEK-293T; effect on: pseudovirus infection; organism: VSV pseudotyped with SARS-CoV-2 spike; concentration: 10 µM; time: 16 h; reference: vehicle-treated
For `CN1CCC(=C2c3ccccc3CCc3cccnc32)CC1`, the GFP-positive cells was 62.9%.
The GFP-positive cells of `C[C@]12COC(=O)C[C@@H]1CC[C@@H]1[C@@H]2CC[C@@]2(C)[C@H]1CC[C@]2(C)O` is reported as 82.3%.
`OCCOCCN1CCN(C(c2ccccc2)c2ccc(Cl)cc2)CC1` (stereo not shown) has a GFP-positive cells of 44%.
With `CCCN(CCC)CCc1cccc2c1CC(=O)N2` the GFP-positive cells was 74.8%.

Sample 3 — effect on: enzyme activity; mode: inhibitor; organism: SARS-CoV-2; added: DTT
Target: Replicase polyprotein 1ab, main protease (rep, Severe acute respiratory syndrome coronavirus 2, UniProt P0DTD1)
`COc1ccc(C(=O)n2nc(-c3ccccc3)nc2N)cc1OC` gave an IC50 of 30.2 µM.
`O=C1C(Cl)=C(N2CCOCC2)C(=O)N1c1ccc(Cl)c(Cl)c1` gave an IC50 of greater than 20 µM.
`O=C(/C=C/c1ccc2ccccc2n1)c1ccncc1` has an IC50 of 0.19 µM.

Sample 4 — method: protein-binding microarray; molecule type: double-stranded DNA, one strand shown; sample: in vitro; concentration: 0.8 µM; setting: whole 60-bp probe, no competitor; direction: higher = stronger binding; all sequences stand within: … GTCTTGATTCGCTTGACGCTGCTG
Target: Centromere-binding protein 1, full length, N-terminal tag (CBF1, Saccharomyces cerevisiae, UniProt P17106, residues 1-351)
UniProt P17106, sequence (whole entry, looked up): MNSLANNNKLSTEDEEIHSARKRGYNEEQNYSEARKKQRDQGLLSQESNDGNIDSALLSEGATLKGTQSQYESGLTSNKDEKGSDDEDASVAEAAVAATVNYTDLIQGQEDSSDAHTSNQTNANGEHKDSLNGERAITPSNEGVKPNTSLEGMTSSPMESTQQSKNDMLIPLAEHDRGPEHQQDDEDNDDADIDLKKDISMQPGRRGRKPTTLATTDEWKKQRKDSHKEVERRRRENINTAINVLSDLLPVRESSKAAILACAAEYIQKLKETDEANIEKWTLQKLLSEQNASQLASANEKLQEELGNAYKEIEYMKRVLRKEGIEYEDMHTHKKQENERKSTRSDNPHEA
With `CTATTAACTAGCGATGACGTGCTTCGATTGAGCTTC` the fluorescence intensity was 524 a.u.
With `CTATTTAGATTATATCACGTAGCTATTGTACTATTC` the fluorescence intensity was 584 a.u.
The fluorescence intensity of `GAACTGTGAAGGTGACACGGTAACTTGCAGACTTAG` is reported as 555 a.u.
The fluorescence intensity of `CTAAAAATTTTTACACTGGTGACAACCTTAATGTTC` is reported as 539 a.u.
`GAAATACCACTCAAGAACGTGCATAGATCCGCATAG` gave a fluorescence intensity of 604 a.u.
`GAAAAAGCCTATTGCCATCACGTGGCAAGCCAGTAG` gave a fluorescence intensity of 7650 a.u.
For `CTAGAAACTATGCTGTGTGTGACCAGGCGAACATTC`, the fluorescence intensity was 614 a.u.
The fluorescence intensity of `GAATTTTCTACTCATAACCTCACGCAAAATAACTAG` is reported as 546 a.u.

Sample 5 — mode: inhibitor; concentration: 20 µM
Target: Replicase polyprotein 1ab, nsp13 helicase (rep, Severe acute respiratory syndrome coronavirus 2, UniProt P0DTD1)
`C[C@@H]1C[C@H]2[C@@H]3CCC4=CC(=O)C=C[C@]4(C)[C@@]3(Cl)[C@@H](O)C[C@]2(C)[C@@]1(O)C(=O)CCl` has an inhibition of 1.66%.
`Fc1ccc(-c2nc3n(c2-c2ccncc2)CCS3)cc1` has an inhibition of -0.5%.
The inhibition of `CCC(=O)Nc1cccc(Oc2nc(Nc3ccc(N4CCN(C)CC4)cc3OC)ncc2Cl)c1` is reported as 6.56%.
With `O=C(Nc1ccc(Cl)nc1)c1ccc(Cl)cc1` the inhibition was 4.28%.
`Nc1nc2ccc(OC(F)(F)F)cc2s1` has an inhibition of 1.46%.
`CC(C)=CCC/C(C)=C/CC/C(C)=C/CSc1ccccc1C(N)=O` has an inhibition of -0.64%.
With `Nc1ccn([C@@H]2O[C@@](CO)(CCl)[C@@H](O)[C@H]2F)c(=O)n1` the inhibition was -0.31%.
`Cc1ccc2c(c1CCC(=O)O)CC[C@@H](NS(=O)(=O)c1ccc(Cl)cc1)C2` gave an inhibition of -0.56%.
`CCC[C@H](N[C@@H](C)C(=O)N1[C@H](C(=O)O)C[C@@H]2CCCC[C@@H]21)C(=O)OCC` has an inhibition of 10.8%.
With `CCCCc1nc(Cl)c(CO)n1Cc1ccc(-c2ccccc2-c2nnn[nH]2)cc1` the inhibition was 9.37%.
`COc1cc2c(Oc3ccc(NC(=O)C4(C(=O)Nc5ccc(F)cc5)CC4)cc3F)ccnc2cc1OCCCN1CCOCC1` gave an inhibition of -1.46%.
The inhibition of `CC[N+](CC)(CC)CCC(O)(c1ccccc1)C1CCCCC1` (stereo not shown) is reported as 3.21%.
With `CC[C@H](NC(=O)c1c(C)c(-c2ccccc2)nc2ccccc12)c1ccccc1` the inhibition was 4.44%.
`c1ccc2cc(C3=NCCN3)ncc2c1` gave an inhibition of 5.72%.
The inhibition of `COc1cc(N2CCOCC2)ccc1Nc1ncc(Cl)c(Nc2ccccc2NS(C)(=O)=O)n1` is reported as 8.18%.
The inhibition of `CCOC(=O)[C@H](Cc1ccccc1)NC(=O)c1cc(Cl)c(OCCN2CCN(C)CC2)c(Cl)c1O` is reported as -1.04%.
With `Oc1nc(O)c2nc(O)[nH]c2n1` the inhibition was -6.87%.
`CC(=O)NO` gave an inhibition of -2.79%.
The inhibition of `CCCCCCCC(=O)N[C@H](CN1CCCC1)[C@H](O)c1ccc2c(c1)OCCO2` is reported as 7.8%.
With `O=C(O)c1ccccn1` the inhibition was -3.57%.
The inhibition of `O=C(NC1CC1)c1cc(-c2cccs2)on1` is reported as 4.91%.
`C1CCC2(CC1)CCNCC2` has an inhibition of 5.41%.
The inhibition of `Oc1ccc2c3c1O[C@H]1c4[nH]c5c(c4C[C@@]4(O)[C@@H](C2)N(CC2CC2)CC[C@]314)C[C@@]1(O)[C@H]2Cc3ccc(O)c4c3[C@@]1(CCN2CC1CC1)[C@H]5O4` is reported as 16.2%.
With `C/C(=C(\CCOP(=O)(O)O)SC(=O)c1ccccc1)N(C=O)Cc1cnc(C)nc1N` the inhibition was 0.37%.
With `OC[C@H]1O[C@@H](O[C@@H]2[C@@H](CO)OC(O)(CO)[C@H]2O)[C@H](O)[C@@H](O)[C@H]1O` (mixture of isomers) the inhibition was 1.67%.

Other studies, line by line — method: RNA Bind-n-Seq; molecule type: RNA; sample: in vitro; setting: 4-mer, random 30-nt RNA, single round; direction: higher = stronger binding
EIF4A1: Eukaryotic initiation factor 4A-I (EIF4A1, Homo sapiens, UniProt P60842, residues 1-406, full length assumed)
UniProt P60842, sequence (whole entry, looked up): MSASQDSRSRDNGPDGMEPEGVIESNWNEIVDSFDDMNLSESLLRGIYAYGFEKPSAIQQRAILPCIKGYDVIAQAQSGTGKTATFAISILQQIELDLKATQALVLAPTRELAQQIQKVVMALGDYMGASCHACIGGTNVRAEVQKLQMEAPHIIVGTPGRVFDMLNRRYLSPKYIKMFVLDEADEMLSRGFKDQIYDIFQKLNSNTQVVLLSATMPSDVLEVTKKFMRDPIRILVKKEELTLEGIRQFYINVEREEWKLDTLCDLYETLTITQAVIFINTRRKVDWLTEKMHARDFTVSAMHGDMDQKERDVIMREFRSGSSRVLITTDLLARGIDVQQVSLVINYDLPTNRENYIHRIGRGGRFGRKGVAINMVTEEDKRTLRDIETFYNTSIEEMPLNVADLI
`GACA` — result for “4-mer enrichment Z-score”: -0.564 (EIF4A1; 15 pmol, added: 3 µM RocA, 2 mM AMP-PNP; reference: mean of 4-mers).
Under “4-mer enrichment Z-score”, `CUAC` is recorded as -1.2 (EIF4A1; 15 pmol, added: 3 µM RocA, 2 mM AMP-PNP; reference: mean of 4-mers).
`CGGA` has a 4-mer enrichment of 0.904 fold (EIF4A1; 90 pmol, added: 3 µM iPr-DMDA-PatA, 2 mM ADP, 2 mM phosphate; reference: input library).
`GGUA` has a 4-mer enrichment of 0.961 fold (ATP-dependent RNA helicase DDX3X, helicase core (DDX3X, Homo sapiens, UniProt O00571, residues 132-607); 90 pmol, added: 3 µM iPr-DMDA-PatA, 2 mM ADP, 2 mM phosphate; reference: input library).

A few entries again (other studies, line by line):
`GACA` — result for “4-mer enrichment Z-score”: -0.564 (EIF4A1; 15 pmol, added: 3 µM RocA, 2 mM AMP-PNP; reference: mean of 4-mers).
Under “4-mer enrichment Z-score”, `CUAC` is recorded as -1.2 (EIF4A1; 15 pmol, added: 3 µM RocA, 2 mM AMP-PNP; reference: mean of 4-mers).
`CGGA` has a 4-mer enrichment of 0.904 fold (EIF4A1; 90 pmol, added: 3 µM iPr-DMDA-PatA, 2 mM ADP, 2 mM phosphate; reference: input library).
`GGUA` has a 4-mer enrichment of 0.961 fold (ATP-dependent RNA helicase DDX3X, helicase core (DDX3X, Homo sapiens, UniProt O00571, residues 132-607); 90 pmol, added: 3 µM iPr-DMDA-PatA, 2 mM ADP, 2 mM phosphate; reference: input library).
